Published values collected from several papers.
Lines come from different studies, so protocols differ. ± marks the error that the study gave. Values after ≈ are worked out from the molar mass of the structure shown.
Ryanodine receptor 1: Ryanodine receptor 1 (Oncorhynchus mykiss, UniProt A0A8C7UX14)
CNR1: Cannabinoid receptor 1 (CNR1, Homo sapiens, UniProt P21554)
Chain of UniProt P21554 (whole entry, looked up): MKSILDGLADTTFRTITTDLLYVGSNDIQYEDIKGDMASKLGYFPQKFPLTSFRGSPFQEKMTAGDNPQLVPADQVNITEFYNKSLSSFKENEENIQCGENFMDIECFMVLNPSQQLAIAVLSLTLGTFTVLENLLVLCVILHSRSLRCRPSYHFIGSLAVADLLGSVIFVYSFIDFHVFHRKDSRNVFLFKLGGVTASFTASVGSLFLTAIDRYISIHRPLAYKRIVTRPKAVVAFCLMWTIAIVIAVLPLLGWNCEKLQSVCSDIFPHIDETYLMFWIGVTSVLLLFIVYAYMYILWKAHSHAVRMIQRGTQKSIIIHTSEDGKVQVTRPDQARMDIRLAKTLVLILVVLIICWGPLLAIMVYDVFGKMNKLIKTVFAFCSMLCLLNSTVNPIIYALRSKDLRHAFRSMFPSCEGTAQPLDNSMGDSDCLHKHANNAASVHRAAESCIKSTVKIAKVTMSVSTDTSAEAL
Chain of UniProt P47870 (whole entry, unmodified, looked up): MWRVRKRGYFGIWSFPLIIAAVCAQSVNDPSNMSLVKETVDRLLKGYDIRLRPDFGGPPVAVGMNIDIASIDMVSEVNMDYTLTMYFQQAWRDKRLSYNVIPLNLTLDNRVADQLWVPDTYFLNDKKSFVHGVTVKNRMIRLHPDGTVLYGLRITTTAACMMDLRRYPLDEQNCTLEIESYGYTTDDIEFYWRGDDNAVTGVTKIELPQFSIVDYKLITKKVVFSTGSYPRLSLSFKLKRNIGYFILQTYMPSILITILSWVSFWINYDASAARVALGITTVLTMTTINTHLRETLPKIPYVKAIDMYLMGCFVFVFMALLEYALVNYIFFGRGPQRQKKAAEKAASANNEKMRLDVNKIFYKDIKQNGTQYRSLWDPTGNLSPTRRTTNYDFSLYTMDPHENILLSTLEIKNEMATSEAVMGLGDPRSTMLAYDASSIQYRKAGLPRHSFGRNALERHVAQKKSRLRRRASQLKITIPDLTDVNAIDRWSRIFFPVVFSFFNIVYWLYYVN
Chain of UniProt P18508 (whole entry, unmodified, looked up): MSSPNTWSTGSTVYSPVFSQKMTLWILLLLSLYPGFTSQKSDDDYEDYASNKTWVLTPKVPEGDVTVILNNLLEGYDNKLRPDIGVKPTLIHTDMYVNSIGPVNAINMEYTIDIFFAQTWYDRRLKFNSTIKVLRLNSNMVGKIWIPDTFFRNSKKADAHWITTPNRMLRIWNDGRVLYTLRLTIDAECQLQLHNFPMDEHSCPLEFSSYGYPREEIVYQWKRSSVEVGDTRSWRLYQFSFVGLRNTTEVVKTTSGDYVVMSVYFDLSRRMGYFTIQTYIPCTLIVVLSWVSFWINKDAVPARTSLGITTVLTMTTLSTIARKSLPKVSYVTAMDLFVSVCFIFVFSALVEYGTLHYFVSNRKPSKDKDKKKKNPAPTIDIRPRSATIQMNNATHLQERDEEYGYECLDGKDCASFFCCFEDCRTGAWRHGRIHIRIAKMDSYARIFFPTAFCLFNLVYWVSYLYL
Chain of UniProt P62813 (whole entry, unmodified, looked up): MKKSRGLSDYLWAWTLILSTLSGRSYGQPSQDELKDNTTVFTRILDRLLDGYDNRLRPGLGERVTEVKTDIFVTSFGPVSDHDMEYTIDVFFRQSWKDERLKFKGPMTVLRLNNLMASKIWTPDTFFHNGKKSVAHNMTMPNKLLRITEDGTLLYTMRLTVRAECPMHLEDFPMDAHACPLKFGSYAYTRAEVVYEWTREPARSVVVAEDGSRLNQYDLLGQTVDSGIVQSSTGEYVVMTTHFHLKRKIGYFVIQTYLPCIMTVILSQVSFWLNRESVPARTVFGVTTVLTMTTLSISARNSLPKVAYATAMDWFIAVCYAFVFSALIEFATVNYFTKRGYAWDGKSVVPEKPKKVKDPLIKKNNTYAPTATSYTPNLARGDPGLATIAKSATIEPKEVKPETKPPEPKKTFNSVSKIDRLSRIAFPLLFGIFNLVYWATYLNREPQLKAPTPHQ
Chain of UniProt P12369 (whole entry, unmodified, looked up): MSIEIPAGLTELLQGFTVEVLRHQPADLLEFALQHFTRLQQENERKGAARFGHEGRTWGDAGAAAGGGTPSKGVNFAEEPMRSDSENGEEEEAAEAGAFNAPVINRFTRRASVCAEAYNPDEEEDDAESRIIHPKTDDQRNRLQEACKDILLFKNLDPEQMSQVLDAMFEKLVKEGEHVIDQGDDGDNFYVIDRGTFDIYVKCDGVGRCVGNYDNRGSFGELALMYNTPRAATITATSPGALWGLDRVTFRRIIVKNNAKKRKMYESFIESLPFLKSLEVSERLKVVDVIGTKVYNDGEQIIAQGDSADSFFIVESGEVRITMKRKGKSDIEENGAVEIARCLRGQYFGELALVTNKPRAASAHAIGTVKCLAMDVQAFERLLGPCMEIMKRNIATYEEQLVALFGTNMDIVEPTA
Chain of UniProt Q8NKB0 (whole entry, unmodified, looked up): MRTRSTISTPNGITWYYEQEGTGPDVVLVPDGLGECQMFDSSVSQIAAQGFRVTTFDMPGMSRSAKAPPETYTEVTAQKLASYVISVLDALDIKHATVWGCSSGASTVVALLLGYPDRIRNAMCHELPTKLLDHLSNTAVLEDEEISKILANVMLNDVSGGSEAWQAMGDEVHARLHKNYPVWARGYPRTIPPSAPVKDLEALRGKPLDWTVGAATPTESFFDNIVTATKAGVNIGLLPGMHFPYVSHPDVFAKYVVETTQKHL
Chain of UniProt P18825 (whole entry, looked up): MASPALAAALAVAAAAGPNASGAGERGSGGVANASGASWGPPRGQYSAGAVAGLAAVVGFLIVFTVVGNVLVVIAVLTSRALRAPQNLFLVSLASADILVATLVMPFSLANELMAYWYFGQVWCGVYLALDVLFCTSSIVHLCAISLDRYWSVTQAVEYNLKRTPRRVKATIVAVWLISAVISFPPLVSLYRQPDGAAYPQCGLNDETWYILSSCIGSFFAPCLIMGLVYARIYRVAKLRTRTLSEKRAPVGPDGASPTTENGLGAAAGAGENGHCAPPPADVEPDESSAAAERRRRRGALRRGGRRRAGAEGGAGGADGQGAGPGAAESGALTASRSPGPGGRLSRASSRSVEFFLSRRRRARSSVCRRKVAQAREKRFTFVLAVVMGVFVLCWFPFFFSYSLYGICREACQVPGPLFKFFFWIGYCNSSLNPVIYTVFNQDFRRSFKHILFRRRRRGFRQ
Chain of UniProt Q03518 (whole entry, looked up): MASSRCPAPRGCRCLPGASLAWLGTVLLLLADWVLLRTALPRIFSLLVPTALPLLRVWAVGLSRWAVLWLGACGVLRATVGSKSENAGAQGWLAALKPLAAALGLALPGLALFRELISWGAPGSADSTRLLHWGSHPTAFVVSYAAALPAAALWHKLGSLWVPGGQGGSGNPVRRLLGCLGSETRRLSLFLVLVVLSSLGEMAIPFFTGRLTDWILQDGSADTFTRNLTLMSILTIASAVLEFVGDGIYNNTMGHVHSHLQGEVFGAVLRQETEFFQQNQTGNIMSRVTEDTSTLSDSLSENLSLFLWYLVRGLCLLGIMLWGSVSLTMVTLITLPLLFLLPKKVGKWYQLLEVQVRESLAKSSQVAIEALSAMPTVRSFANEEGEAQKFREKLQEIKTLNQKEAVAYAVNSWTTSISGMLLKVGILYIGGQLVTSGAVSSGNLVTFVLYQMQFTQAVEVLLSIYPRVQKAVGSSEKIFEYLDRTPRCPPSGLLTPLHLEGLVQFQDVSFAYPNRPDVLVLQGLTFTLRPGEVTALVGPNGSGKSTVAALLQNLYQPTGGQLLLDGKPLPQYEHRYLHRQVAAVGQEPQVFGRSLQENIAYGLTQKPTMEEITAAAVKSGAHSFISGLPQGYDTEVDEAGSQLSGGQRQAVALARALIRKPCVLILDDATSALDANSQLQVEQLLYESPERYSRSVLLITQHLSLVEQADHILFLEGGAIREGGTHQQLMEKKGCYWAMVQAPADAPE
Chain of UniProt P02920 (whole entry, unmodified, looked up): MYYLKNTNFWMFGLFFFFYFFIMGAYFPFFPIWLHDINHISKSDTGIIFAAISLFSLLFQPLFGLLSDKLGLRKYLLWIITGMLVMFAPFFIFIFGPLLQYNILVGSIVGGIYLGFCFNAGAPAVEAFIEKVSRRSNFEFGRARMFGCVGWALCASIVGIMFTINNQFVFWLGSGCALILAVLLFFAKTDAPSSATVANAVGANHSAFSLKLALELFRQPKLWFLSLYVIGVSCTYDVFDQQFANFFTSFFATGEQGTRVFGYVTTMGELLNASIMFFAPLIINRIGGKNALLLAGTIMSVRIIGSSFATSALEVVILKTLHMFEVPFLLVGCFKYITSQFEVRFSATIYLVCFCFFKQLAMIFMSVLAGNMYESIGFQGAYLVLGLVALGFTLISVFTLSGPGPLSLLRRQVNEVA
Chain of UniProt Q03519 (whole entry, looked up): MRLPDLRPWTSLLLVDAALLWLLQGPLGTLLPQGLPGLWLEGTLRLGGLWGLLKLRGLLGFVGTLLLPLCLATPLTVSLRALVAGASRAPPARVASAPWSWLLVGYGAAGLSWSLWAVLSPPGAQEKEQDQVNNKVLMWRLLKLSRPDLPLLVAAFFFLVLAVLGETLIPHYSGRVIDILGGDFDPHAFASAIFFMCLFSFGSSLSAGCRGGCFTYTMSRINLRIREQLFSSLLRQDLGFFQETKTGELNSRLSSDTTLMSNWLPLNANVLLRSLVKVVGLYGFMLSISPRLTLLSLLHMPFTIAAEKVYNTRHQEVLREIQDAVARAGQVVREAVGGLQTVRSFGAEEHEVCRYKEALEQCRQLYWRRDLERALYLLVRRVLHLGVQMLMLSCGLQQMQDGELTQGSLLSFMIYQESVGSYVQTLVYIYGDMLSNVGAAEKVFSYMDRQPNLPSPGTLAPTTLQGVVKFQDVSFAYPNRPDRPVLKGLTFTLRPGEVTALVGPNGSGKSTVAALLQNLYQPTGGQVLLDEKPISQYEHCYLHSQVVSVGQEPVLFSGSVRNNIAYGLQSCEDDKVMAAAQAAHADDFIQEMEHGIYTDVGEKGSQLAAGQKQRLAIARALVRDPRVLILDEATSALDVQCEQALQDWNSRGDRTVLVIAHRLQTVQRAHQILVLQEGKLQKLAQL

`CC(C)[C@H](NC(=O)[C@H](CCC(=O)O)NC(=O)[C@H](CC(=O)O)NC(=O)[C@H](C)NC(=O)[C@H](CC(=O)O)NC(=O)[C@H](CC(N)=O)NC(=O)[C@H](CC(=O)O)NC(=O)[C@H](CO)NC(=O)[C@H](CO)NC(=O)[C@@H](NC(=O)[C@H](CCC(N)=O)NC(=O)[C@H](Cc1ccccc1)NC(=O)[C@H](CC(=O)O)NC(=O)[C@H](CCC(=O)O)NC(=O)[C@H](CC(=O)O)NC(=O)[C@@H](NC(=O)[C@H](CO)NC(=O)[C@H](CCC(=O)O)NC(=O)[C@@H](N)CC(=O)O)C(C)C)C(C)C)C(=O)N[C@@H](C)C(=O)N[C@@H](CCC(=O)O)C(=O)N[C@@H](CCC(=O)O)C(=O)N[C@@H](Cc1ccccc1)C(=O)N[C@@H](CC(=O)O)C(=O)N[C@@H](CO)C(=O)O` gave an affinity loss of 41 fold (H2A-H2B(30-130) H2B Y45A/M62A, Saccharomyces cerevisiae; ITC; relative to: mutant over wild-type histones Kd).
`N[C@@H](COP(=O)(O)O)C(=O)O` has a substrate hydrolysis of 5.75% (Phospholysine phosphohistidine inorganic pyrophosphate phosphatase (LHPP, Homo sapiens, UniProt Q9H008); substrate, absorbance; 100 µM, 90 min, pH 7.8).
With `C/C=C1/CN2[C@H]3C[C@@H]1[C@@H](CO)[C@@H]2Cc1c3n(C)c2ccccc12` the ED50 was greater than 20 µM (RELA (Homo sapiens, UniProt Q04206); DNA binding, inhibitor, ELISA; HeLa nuclear extract).
`nitric oxide` has a rate constant of roughly 2e+06 M⁻¹ s⁻¹ (H-NOX ferrous, Nostoc sp.; stopped-flow; 24 °C).
For `CC[C@H](C)[C@H](NC(=O)[C@H](CCCNC(=N)N)NC(=O)[C@H](CCCNC(=N)N)NC(=O)[C@H](CC(C)C)NC(=O)[C@H](CCC(N)=O)NC(=O)[C@H](CCC(=O)O)NC(=O)[C@H](C)NC(=O)[C@@H](NC(=O)[C@H](CNC(=O)c1cc(S(=O)(=O)F)ccc1OC)NC(C)=O)[C@@H](C)CC)C(=O)NCC(=O)N[C@@H](CC(=O)O)C(=O)N[C@@H](CCCNC(=N)N)C(=O)N[C@@H](Cc1ccccc1)C(N)=O`, the kinact was 0.0157 s⁻¹ (MCL1 (Homo sapiens, UniProt Q07820); cell-free assay, inhibitor).
`CC(=O)SCCNC(=O)CCNC(=O)[C@H](O)C(C)(C)COP(=O)(O)OP(=O)(O)OC[C@H]1O[C@@H](n2cnc3c(N)ncnc32)[C@H](O)[C@@H]1OP(=O)(O)O` has a Km of 0.035 ± 0.005 mM (2-isopropylmalate synthase, heterodimer with wild-type (leuA, Neisseria meningitidis serogroup B, UniProt Q9JZG1, R32Q); enzyme activity, substrate, DTP-coupled; R32Q heterodimer, one chain, with: α-ketoisovalerate 300 µM).
For `O=S(=O)(O)Oc1ccc(-c2cccc(Cl)c2)cc1Cl`, the Vmax was 18 ± 2.8 nmol/min/mg (sulfatase, human liver microsomes; substrate; pH 7.4, 37 °C).
The translocated peptide of `TVNKTESAY` is reported as 4 to 5% (Antigen peptide transporter 1/Antigen peptide transporter 2 (Homo sapiens, UniProt Q03518+Q03519); substrate, radiolabelled peptide transport; peptide, LCL721, streptolysin O-permeabilised; concentration not given; relative to: input).
For `Clc1ccc(-c2c(Cl)ccc(Cl)c2Cl)c(Cl)c1Cl`, the EC20 was 18.6 µM (Ryanodine receptor 1; [3H]ryanodine binding; rainbow trout, skeletal muscle microsomes).
For `O=[N+]([O-])c1ccc(O[C@H]2O[C@H](CO)[C@H](O)[C@H](O)[C@H]2O)cc1`, “forward rate constant” read 45 ± 4 s⁻¹ (lacY (Escherichia coli, UniProt P02920, H35C/N245C); cytoplasmic cavity opening; DDM; Cu2+ cross-linked).
`Clc1ccc(Cl)c(-c2cc(Cl)ccc2Cl)c1` has an Emax of roughly 250% (Ryanodine receptor 1; [3H]ryanodine binding, activator; trout muscle microsomes; concentration not given; relative to: DMSO).
`O=S(=O)(O)c1nc2ccccc2[nH]1` — result for “binding free energy”: -5.71 kcal/mol (racE (Bacillus subtilis, UniProt P94556, N75L); enzyme activity, inhibitor).
The Emax of `NC(=O)N1CCC[C@H](CNC(=O)c2nn(Cc3ccc(F)cc3)c3ccccc23)C1` is reported as 91 ± 4% (CNR1; calcium mobilization, agonist; CHO-K1 expressing Gαq16; relative to: CP55,940 maximum).
With `CC[C@H](C)[C@H](NC(=O)[C@H](C)NC(=O)CNC(=O)[C@H](Cc1ccccc1)NC(=O)[C@H](CC(N)=O)NC(=O)[C@H](CC(N)=O)NC(=O)[C@H](CO)NC(=O)[C@H](CO)NC(=O)[C@H](Cc1c[nH]cn1)NC(=O)[C@@H](NC(=O)[C@H](CC(C)C)NC(=O)[C@H](Cc1ccccc1)NC(=O)[C@H](CC(N)=O)NC(=O)[C@H](C)NC(=O)[C@H](CC(C)C)NC(=O)[C@H](CCCNC(=N)N)NC(=O)[C@H](CCC(N)=O)NC(=O)[C@@H](NC(=O)[C@H](C)NC(=O)[C@@H]1CSSC[C@H](NC(=O)[C@@H](N)CCCCN)C(=O)N[C@@H](CC(N)=O)C(=O)N[C@@H]([C@@H](C)O)C(=O)N[C@@H](C)C(=O)N[C@@H]([C@@H](C)O)C(=O)N1)[C@@H](C)O)C(C)C)C(=O)N[C@@H](CC(C)C)C(=O)N[C@@H](CO)C(=O)N[C@@H](CO)C(=O)N[C@H](C(=O)N[C@@H](CC(N)=O)C(=O)N[C@H](C(=O)NCC(=O)N[C@@H](CO)C(=O)N[C@@H](CC(N)=O)C(=O)N[C@H](C(=O)N[C@@H](Cc1ccc(O)cc1)C(N)=O)[C@@H](C)O)C(C)C)[C@@H](C)O` the cleavage rate was 0.01 ± 0.002 nmol/min/µg (Neprilysin (MME, Homo sapiens, UniProt P08473); substrate, HPLC; 20 µM, 37 °C).
With `Nc1ncnc2c1ncn2[C@@H]1O[C@H](COP(=O)(O)OP(=O)(O)OP(=O)(O)O)[C@@H](O)[C@H]1O` the ΔTm was -0.5 °C (Lysine--tRNA ligase (Plasmodium falciparum, UniProt Q8IDJ8); thermal shift; 40 µM, no lysine).
`COc1cc(CN2CCc3c(cc(Cn4ccn(C)c4=N)cc3-c3ccc(F)cc3C)C2=O)cc(OC)c1`: binding “no effect” (WD repeat-containing protein 5, with MLL1 and RBBP5 (WDR5, Homo sapiens, UniProt P61964); RBBP5 binding, co-immunoprecipitation; MV4-11; 1 µM, 4 h).
With `O=P1(S)OCC2OC(n3cnc4cc(Cl)c(Cl)cc43)C(O)C2O1` (stereo not shown) the selectivity ratio was 4.1 (cAMP-dependent protein kinase type II-beta regulatory subunit, holoenzyme with catalytic subunit (Prkar2b, Rattus norvegicus, UniProt P12369, S112A); PKA holoenzyme activation, activator, fluorescence anisotropy; relative to: RIIβ over RIα, higher = RIIβ-selective).
Under “minimum inhibitory concentration”, `CCCCCCCCCCCCCC#CC(=O)Oc1ccc(/C=C/C(=O)/C=C/c2ccc(OC(=O)C#CCCCCCCCCCCCCC)c(OC)c2)cc1OC` is recorded as 250 µg/mL (≈ 314 µM) (DNA gyrase (Staphylococcus aureus, UniProt P0A0K8+P20831); DNA supercoiling, inhibitor).
`C[C@@H]1CN(c2ccccn2)C(=O)c2cc(COc3ccc(Cl)cn3)nn21` — result for activity class: “inactive” (Grm5 (Rattus norvegicus, UniProt P31424); calcium mobilisation, allosteric modulator; rat mGlu5-expressing cells; concentration not given).
The KI of `N[C@@H](CCSN=O)C(=O)O` is reported as 66000 ± 30000 µM (Arginine deiminase (arcA, Bacillus cereus, UniProt B7JN59); irreversible inhibitor).
`CCc1c(C(=O)NCCc2ccc(N3CCCCC3)cc2)[nH]c2ccc(Cl)cc12` — result for “Emax of anandamide”: 28.4 ± 2.07% (CNR1; cAMP inhibition, negative allosteric modulator; HEK-CRE; 1 µM, 4 h, with: forskolin 10 µM).
The maximal response of `CCCCCCC(C)(C)c1ccc([C@@H]2C[C@H](O)CC[C@H]2CCCO)c(O)c1` is reported as 108% (RORA (Homo sapiens, UniProt P35398); AlphaScreen; relative to: 25 µM 7α-hydroxycholesterol).
`CC(C)(NC(=O)c1nn(Cc2ccc(F)cc2)c2ccccc12)C1CCN(C(N)=O)CC1` has an Emax of 70 ± 1% (CNR1; calcium mobilization, agonist; CHO-K1 expressing Gαq16; relative to: CP55,940 maximum).
`C[C@H]1CCCC(=O)CCC/C=C/c2cc(O)cc(O)c2C(=O)O1` has a Km of 45.3 ± 1.24 mM (zhd101 (Clonostachys rosea, UniProt Q8NKB0, E171K); substrate, HPLC; 10 min, pH 5.5, 37 °C, 1% acetonitrile).
`CC(C)[C@@H](CN1CCN(c2cccc(O)c2)[C@@H](C)C1)NC(=O)c1ccc(Oc2cccc(O)c2)cc1` has a Ke of 625 ± 120 nM (OPRD1 (Homo sapiens, UniProt P41143); antagonist; CHO; with: DPDPE).
`CC[C@H](C)[C@H](NC(=O)[C@H](C)NC(=O)[C@H](CCC(=O)O)NC(C)=O)C(=O)N[C@H](C(=O)N[C@@H](CCCNC(=N)N)C(=O)N[C@H](C(=O)N[C@@H](CC(C)C)C(=O)N[C@@H](CCC(N)=O)C(=O)N[C@@H](CCC(N)=O)C(=O)N[C@@H](CC(C)C)C(=O)N[C@@H](CC(C)C)C(=O)N[C@@H](Cc1ccccc1)C(=O)N[C@H](C(=O)N[C@@H](Cc1c[nH]cn1)C(=O)N[C@@H](Cc1ccccc1)C(=O)N[C@@H](CCCNC(=N)N)C(=O)N[C@H](C(=O)NCC(=O)N[C@@H](CCCNC(=N)N)C(=O)N[C@@H](CCCNC(=N)N)C(=O)N[C@@H](CCCNC(=N)N)C(=O)N[C@@H](CCCNC(=N)N)C(=O)N[C@@H](CCCNC(=N)N)C(=O)N[C@@H](CCCNC(=N)N)C(=O)N[C@@H](CCCNC(=N)N)C(=O)N[C@@H](CCCNC(=N)N)C(N)=O)[C@@H](C)CC)[C@@H](C)CC)[C@@H](C)CC)[C@@H](C)CC` — result for “minimum DNA retardation concentration”: 4 µM (HIV-1 integrase and DNA substrate; DNA binding, gel retardation; 2 h, 37 °C, with: radiolabelled oligonucleotide DNA).
The Emax of `Clc1cc(Cl)c(-c2c(Cl)cc(Cl)c(Cl)c2Cl)cc1Cl` is reported as 144 ± 9.55% (Ryanodine receptor 1; [3H]ryanodine binding; rainbow trout, skeletal muscle microsomes; up to 20 µM; relative to: DMSO).
`anthraquinone-neomycin`: “binding site size” 7.5 base triplets (poly(dA)•2poly(dT) DNA triplex; DNA binding, CD titration; concentration not given, pH 6.8, KCl 150 mM).
For `copper-phenanthroline`, “GABA current change” read “decreased” (Gabrg2/GABRB2/Gabra1 (Rattus norvegicus, UniProt P18508+P47870+P62813, C260A/C282A/C312A/C319A/C341A/N289C/T249C); two-electrode voltage clamp; Xenopus oocytes; 100 µM with phenanthroline 200 µM, 2 min, after DTT, with: GABA 1 mM; relative to: initial response, vs Cys-less receptor).
For `NC(=O)CN1CCC[C@@H](CNC(=O)c2nn(Cc3ccc(F)cc3)c3ccccc23)C1`, the Emax was 109 ± 3% (CNR1; calcium mobilization, agonist; CHO-K1 expressing Gαq16; relative to: CP55,940 maximum).
`Cc1ccc(Nc2ccc3c(c2)C(c2ccccc2F)=NC(C)C(=O)N3)c(C)c1` (stereo not shown) has an inhibition of 5% (ADRA2C (Homo sapiens, UniProt P18825); ligand displacement, radioligand; 10 µM).
The Emax of `CC(F)(F)CCCn1nc(C(=O)NC(C)(C)c2cccc(C(N)=O)c2)c2ccccc21` is reported as 47 ± 3% (CNR1; calcium mobilization, agonist; CHO-K1 expressing Gαq16; relative to: CP55,940 maximum).
Under GABA current, `CCCCSS(C)(=O)=O` is recorded as “increased” (Gabrg2/GABRB2/Gabra1 (Rattus norvegicus, UniProt P18508+P47870+P62813, C260A/C282A/C312A/C319A/C341A/L309C); covalent modifier, two-electrode voltage clamp; Xenopus laevis oocytes; 0.5 mM, labelled without GABA, with: GABA EC10; relative to: before labelling).
For `COc1cc(/C=C/C(=O)CC(=O)/C=C/c2ccc(O)c(OC)c2)ccc1O`, the emission maximum was 561 nm (Protein kinase C theta type, C1B domain (Mus musculus, UniProt Q02111); buffer; 5×1 µM, 1 h, 25 °C, protein excess).

Repeated from above:
With `CC[C@H](C)[C@H](NC(=O)[C@H](C)NC(=O)CNC(=O)[C@H](Cc1ccccc1)NC(=O)[C@H](CC(N)=O)NC(=O)[C@H](CC(N)=O)NC(=O)[C@H](CO)NC(=O)[C@H](CO)NC(=O)[C@H](Cc1c[nH]cn1)NC(=O)[C@@H](NC(=O)[C@H](CC(C)C)NC(=O)[C@H](Cc1ccccc1)NC(=O)[C@H](CC(N)=O)NC(=O)[C@H](C)NC(=O)[C@H](CC(C)C)NC(=O)[C@H](CCCNC(=N)N)NC(=O)[C@H](CCC(N)=O)NC(=O)[C@@H](NC(=O)[C@H](C)NC(=O)[C@@H]1CSSC[C@H](NC(=O)[C@@H](N)CCCCN)C(=O)N[C@@H](CC(N)=O)C(=O)N[C@@H]([C@@H](C)O)C(=O)N[C@@H](C)C(=O)N[C@@H]([C@@H](C)O)C(=O)N1)[C@@H](C)O)C(C)C)C(=O)N[C@@H](CC(C)C)C(=O)N[C@@H](CO)C(=O)N[C@@H](CO)C(=O)N[C@H](C(=O)N[C@@H](CC(N)=O)C(=O)N[C@H](C(=O)NCC(=O)N[C@@H](CO)C(=O)N[C@@H](CC(N)=O)C(=O)N[C@H](C(=O)N[C@@H](Cc1ccc(O)cc1)C(N)=O)[C@@H](C)O)C(C)C)[C@@H](C)O` the cleavage rate was 0.01 ± 0.002 nmol/min/µg (Neprilysin (MME, Homo sapiens, UniProt P08473); substrate, HPLC; 20 µM, 37 °C).
`Cc1ccc(Nc2ccc3c(c2)C(c2ccccc2F)=NC(C)C(=O)N3)c(C)c1` (stereo not shown) has an inhibition of 5% (ADRA2C (Homo sapiens, UniProt P18825); ligand displacement, radioligand; 10 µM).
